Results pooled from the literature.
Each line is one published result; not all experiments were run side by side. ± gives the spread as reported.

Compound | test | test system | conditions | Cmax
C[C@@H](c1nc(-c2ccc(C#N)cc2)cs1)[C@](O)(Cn1cncn1)c1cc(F)ccc1F | – | healthy humans, plasma | oral, 200 mg once daily, added: mycophenolate mofetil 1 g single dose | 6700 ng/mL
O=C1Nc2ccc(Cl)cc2[C@@](C#CC2CC2)(C(F)(F)F)O1 | – | healthy human, serum | oral, 400 mg single dose | 660 ± 400 ng/mL
C=C(C)[C@@H]1CC[C@]2(NCCN3CCS(=O)(=O)CC3)CC[C@]3(C)[C@H](CC[C@@H]4[C@@]5(C)CC=C(C6=CC[C@@](CF)(C(=O)O)CC6)C(C)(C)[C@@H]5CC[C@]43C)[C@@H]12 | – | human | oral, 320 mg once daily, day 14, multiple ascending dose | 2160 ng/mL
Cc1ccc(C(=O)N2CCOC[C@H]2Cc2cccc(-n3nccn3)c2)c(-n2nccn2)c1 | – | healthy human, plasma | oral, 100 mg initial dose, day 8 | 693 ng/mL
Cc1ccc(NC(=O)c2ccc(CN3CCN(C)CC3)cc2)cc1Nc1nccc(-c2cncc(-c3oncc3C)c2)n1 | – | older healthy human adults, plasma | oral, 12.5 mg single dose, fed, mean | 447 ng/mL
Cc1cc(-c2nnc(N)nc2-c2ccc(F)cc2)cc(Cl)n1 | – | human patients, plasma | oral, 150 mg capsule, single dose, arithmetic mean | 1050 ng/mL
CN(Cc1nc2c(N)nc(N)nc2[nH]c1=O)c1ccc(C(=O)N[C@@H](CCC(=O)O)C(=O)O)cc1 | – | human, plasma | oral, 15 mg methotrexate, day 1, alone, arithmetic mean | 64.7 ng/mL
Cn1c(Cn2ccc(C(F)(F)F)c(Oc3cc(Cl)cc(C#N)c3)c2=O)n[nH]c1=O | – | human, plasma | oral, 100 mg once daily, geometric mean, added: islatravir 2.25 mg once daily | 2710 nM
CN1CC[C@H](c2c(O)cc(O)c3c(=O)cc(-c4ccccc4Cl)oc23)[C@H](O)C1 | HPLC-MS/MS | human, plasma | intravenous, 40 mg/m^2, cycle 1, mean, added: irinotecan 180 mg/m^2 | 1650 nM
C=C(C)[C@@H]1CC[C@]2(NCCN3CCS(=O)(=O)CC3)CC[C@]3(C)[C@H](CC[C@@H]4[C@@]5(C)CC=C(C6=CC[C@@](CF)(C(=O)O)CC6)C(C)(C)[C@@H]5CC[C@]43C)[C@@H]12 | – | healthy human volunteers, plasma | oral, 200 mg, tablet, high-fat state, mean | 1160 ng/mL
CCN1CCN(Cc2ccc(Nc3ncc(F)c(-c4cc(F)c5nc(CO)n(C(C)C)c5c4)n3)nc2)CC1 | – | human patients, plasma | oral, 150 mg, single dose, geometric mean | 45.7 ng/mL
Cc1ccc(NC(=O)c2ccc(CN3CCNCC3)cc2)cc1Nc1nccc(-c2cccnc2)n1 | – | human patients, plasma | oral, 400 mg/day of imatinib, day 10 of cycle 1 | 521 ng/mL
O=C(CCCCCCC(=O)Nc1ccccc1)NO | – | human, serum | oral, 300 mg three times daily, 3 days, median, added: idarubicin | 998 nM
CC(C)(Sc1ccncc1-c1ccc(C#N)c2ccccc12)C(=O)O | – | human, male, plasma | oral, 2.5 mg once daily, day 14, added: febuxostat 80 mg once daily | 4.94 ng/mL
COc1ccnc(C[S+]([O-])c2nc3ccc(OC(F)F)cc3[nH]2)c1OC (stereo not shown) | – | human, CYP2C19 rapid metabolizers, plasma | oral, 40 mg/day, day 5 | 5460 ng/mL
Cc1nc(-c2ccc(OCC(C)C)c(C#N)c2)sc1C(=O)O | – | human, plasma | oral, 40 mg, added: verinurad 2.5 mg | 626 ng/mL
CCCCCCCCCCCCCCC[C@H](O)[C@@H](N)CO | – | human, phase I, plasma | intravenous, 120 mg/m^2, day 1, monotherapy | 3400 nM
CS(=O)(=O)n1cc2c(n1)CN([C@H]1CO[C@H](c3cc(F)ccc3F)[C@@H](N)C1)C2 | – | healthy male human, plasma | oral, 10 mg once weekly, day 1, fasted, geometric mean | 184 nM
Nc1ccc(-c2nc([C@H]3CCc4cc(-c5cc(Cl)ccc5-n5cnnn5)cc(=O)n43)c(F)[nH]2)c(F)n1 | – | human, plasma | oral, 80 mg once daily, fed, day 1 | 553 ng/mL

Excerpt of the above:
Compound | test | test system | conditions | Cmax
C=C(C)[C@@H]1CC[C@]2(NCCN3CCS(=O)(=O)CC3)CC[C@]3(C)[C@H](CC[C@@H]4[C@@]5(C)CC=C(C6=CC[C@@](CF)(C(=O)O)CC6)C(C)(C)[C@@H]5CC[C@]43C)[C@@H]12 | – | healthy human volunteers, plasma | oral, 200 mg, tablet, high-fat state, mean | 1160 ng/mL
